Assay results gathered from unrelated publications.
Every numbered part comes from another study and shows a few of its results, in no order.

Sample 1
Target: RNA binding protein fox-1 homolog 2, RRM domain, GST-SBP tag (RBFOX2, Homo sapiens, UniProt O43251-10, residues 100-194)
Technique: RNA Bind-n-Seq
Form: RNA
Medium: in vitro
Tested at: 365 nM
Setting: natural RNA segment, single round, ends assumed
Relative to: no-protein control
Direction: higher = stronger binding
Endpoint: RBNS enrichment (R)
All sequences stand within: GGGAGUUCUACAGUCCGACGAUC … UGGAAUUCUCGGGUGCCAA
Target sequence (chain): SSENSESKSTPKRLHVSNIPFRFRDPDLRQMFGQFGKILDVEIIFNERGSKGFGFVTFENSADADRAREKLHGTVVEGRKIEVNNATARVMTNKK
UACAUCAACACAGUGGUGAUGCUGGAGAACGUUACCCAAGGUCUCAUCAGUGUCUCUGCUGUACUGGAAGCCACCUCUGGUUUUCCUCUGAAAUAUUAAAAGACAGAAUC: 0.195
GAUGAUUUAAAAUUUUAAACCUGUUACAUUGAAAAACAUUGAAGUUCGUCUUGAAGAAAGCAUUAAGGUAUGCAUGGAGGUGAUUUAUUUUUAAACAUAACACCUAACCU: 19.3
CCAGCAUUAGGUAUUACUACCUGCCUCUGUCACUAAGAAUUUCUUCUCUUCCAUCUUCUGUGAGUAGGGUUUGGCUUUGUAUCCCUCCCUUGAUUGUUUCCAUACCACUC: 1.41
AUUCCAUGAAAGAUGCAUUCAUUUAUUGAAGAUGACAAAAAAGGGAGUCAGAUAUAUUCUGGAAGCUAUUUUAAUUUUAGGCACACAAUCUCAUACAUUUUGAGACCCUU: 0.38
GAUGGUGUAGGAGAAGGCUUUCAAGAAUGACGGAAUAAGAGACCUGUUUUAAAAAGGAACUGCAGCAAUCUUUGAAAGACUUCCAAAGAAUGUUAGAGCACAGUACAUAA: 1.15
GGGCAUUUUUCUACAAGAAGCAGUCAGCCUUCUCUCCCCCAUAAGGACUGGCUGUAACCUUAAGCCCAUCAAAGUUACUUCCAGCCUGGAGAGAACCUCACCAAACAGCU: 0.362
AAUGGUGUCUUUUGAAAUGCACUUGUUUUUAAUUUUAAUGAAGCCUAAUGUAUUAGUUUCCUUAUACGAGUUAUGCUUUUAGUACUGUAUCUCUCUCUGCUUAACUAAAG: 0.491
AAAACUCAGAAGAGAUAGUAAUGCUCAGGACAGGAGCGGCAGCCCCAGAACAGGCCACUCAUUUAGAAUUCUAGUGUUUCAAAACACUUUUGUGUGUUGUAUGGUCAAUA: 0.557
GAGACACCAGAGGUCUGCUGCAGAGCCCCACCAAGAACCAAGAUGAAGAAAGCCCCUGAGAGAUGCACAUGGAGCCUGGAUCACUUCAUCCUCACACCUGUUCCCUCCAG: 0.902
CAGGCAGACUCAUCUCCGCAGAGCAUACCAGCCGUGGGGGACCGUUCGACUUGAUGAUGUGUGCACACUUCAGGUGGUGGGGACUUGAGCUUUAAAAAAACCUCCACAGC: 0.641
CUAUACUUUGCCAUGCACGACUGUUCCUGCAAUUGAUAUUGUGUGAAAUCUGGGAGGGUGGUCUUUGGGUGUUCUCAGGGGCCAAUGGUAAUUUUUGGGUUGGGGAGCCA: 0.548
GUAUCUAUUCAGUUUGUUCUUACUAACUUCUGGUCUUUUAAAAGACGUCAACGGAGGAACCUCGGUUCUUCAACACAAGCUUUGUAUGUAAGCCGAGAGAAAAGUCAUGU: 0.417

Sample 2
Target: Interferon regulatory factor 7, full length, phosphomimetic (IRF7, Homo sapiens, UniProt Q92985, residues 1-503, S101K/S471D/S472D/S475D/S476D/S477D/S483D/S484D/S487D)
Technique: protein-binding microarray
Form: double-stranded DNA, one strand shown
Medium: in vitro
Tested at: 250 nM
Setting: 60-bp whole probe
Added: salmon DNA 0.4 mg/ml
Relative to: random background probes
Direction: higher = stronger binding
Endpoint: log fluorescence
All sequences stand within: GCCTAGCAC … GTCTTGATTCGCTTGACGCTGCTG
Residues (chain): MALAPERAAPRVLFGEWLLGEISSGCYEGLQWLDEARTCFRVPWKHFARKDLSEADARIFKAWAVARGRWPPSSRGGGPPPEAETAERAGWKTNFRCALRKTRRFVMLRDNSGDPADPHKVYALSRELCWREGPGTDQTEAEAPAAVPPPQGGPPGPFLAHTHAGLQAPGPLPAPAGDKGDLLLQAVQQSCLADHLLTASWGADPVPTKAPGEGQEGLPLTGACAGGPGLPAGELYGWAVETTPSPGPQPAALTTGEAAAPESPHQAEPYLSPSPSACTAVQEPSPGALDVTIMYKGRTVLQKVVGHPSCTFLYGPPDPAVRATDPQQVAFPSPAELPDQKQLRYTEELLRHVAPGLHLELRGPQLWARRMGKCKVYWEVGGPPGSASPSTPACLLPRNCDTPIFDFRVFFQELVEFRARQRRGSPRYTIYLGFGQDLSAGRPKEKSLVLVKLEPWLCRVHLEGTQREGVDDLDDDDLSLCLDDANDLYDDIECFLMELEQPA
GACGATTTCAGTCTCGATACGTGCTAG: 1.11 z-score
TTAGGACTGGGACTGGCTTAGTGCTAG: -0.541 z-score
GACGGTATCGCTCTCGGGACGTGCTAG: -0.165 z-score
TGGGTAATGCTTCTGTATTCGTGCTAG: -0.126 z-score
TTAGATTTCAGTTCCGACTAGTGCTAG: 1.05 z-score
TTAGGTTTCGGTATCGGTCAGTGCTAG: 10.3 z-score
GACGGTATCGGGACTTGGGACGTGCTA: -0.239 z-score
TTAGATCTCAGTCTCGAATAGTGCTAG: 0.661 z-score
TTAGGACTGTGGTTTCGGTTAGTGCTA: 7.57 z-score
ATGTATATATGTGTATATATGTGCTAG: 0.409 z-score
GACGGTTTCGGCTTCGGGACGTGCTAG: 6.28 z-score

Sample 3
Target: Histone acetyltransferase KAT6A, winged helix 2, GST fusion (KAT6A, Homo sapiens, UniProt Q92794, residues 85-181)
Technique: protein binding microarray
Form: double-stranded DNA, one strand shown
Medium: in vitro
Tested at: not given
Setting: 8-mer, flanks averaged, mean of 2 arrays, mostly near background
Relative to: not given
Direction: higher = stronger binding
Endpoint: E-score
Target sequence (chain): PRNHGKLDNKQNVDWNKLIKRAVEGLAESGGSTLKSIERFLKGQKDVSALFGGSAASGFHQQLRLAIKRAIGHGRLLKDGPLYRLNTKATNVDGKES
ATTTGTGG: 0.0198
CACACCTC: -0.0712
CCAGATTA: 0.0186
GATAGTTA: -0.13
ATCAAGCC: 0.111
AAGCTGGC: 0.0393
AATTAGTA: 0.181
ACTCACGG: 0.0428
AGCCAGCA: -0.0447
AAAACCTT: 0.0554
ACTACGTG: -0.224
GCTAGCTA: 0.0718
AAGATGCT: -0.0474
CTCCGGAG: -0.0602
AAACCCAC: 0.11
AGTAAAGC: 0.0609
CCGACAAG: 0.0929
ATACCCAT: -0.0709
AAACGTCA: -0.203
AGAATTAG: 0.0716
CGCGCTAG: -0.0207
AACTTAGA: -0.0754
GCCGTAAA: 0.0748
ATGCGCAC: 0.0193
TGGGCCAA: -0.0216

Sample 4
Target: Hepatocyte nuclear factor 3-alpha (Foxa1, Mus musculus, UniProt P35582, residues 1-468, full length assumed)
Technique: EMSA with sequencing
Form: double-stranded DNA, one strand shown
Medium: in vitro
Tested at: 10 and 20 nM
Setting: whole designed probe, mean of two concentrations, ends assumed
Relative to: negative control set to 0
Direction: higher = stronger binding
Endpoint: normalised bound fraction
All sequences stand within: GTGAGCGGTGCCCATTGATGGGGAAC … TTTCACTGGGATCGTGGGGAC
Residues (chain): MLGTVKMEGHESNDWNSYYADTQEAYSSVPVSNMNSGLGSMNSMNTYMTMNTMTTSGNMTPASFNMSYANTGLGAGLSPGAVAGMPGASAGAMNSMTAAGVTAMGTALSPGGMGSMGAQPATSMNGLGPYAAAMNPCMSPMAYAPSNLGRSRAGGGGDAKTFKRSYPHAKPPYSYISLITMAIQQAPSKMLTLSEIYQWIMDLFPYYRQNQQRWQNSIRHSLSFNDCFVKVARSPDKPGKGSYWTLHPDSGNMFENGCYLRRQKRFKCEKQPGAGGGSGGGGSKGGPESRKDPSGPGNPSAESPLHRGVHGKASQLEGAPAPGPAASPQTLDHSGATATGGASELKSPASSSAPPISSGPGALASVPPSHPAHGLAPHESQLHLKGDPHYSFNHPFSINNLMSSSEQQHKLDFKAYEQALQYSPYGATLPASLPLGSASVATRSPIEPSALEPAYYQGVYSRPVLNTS
AAAGAAAAAAAAAAAAGAAATACCGAAGTGGTTCCCCAAGGCACCAATTTAAAGTGTATATGTGCAGTGCAGGGTTACTGGACCAAGGCACAGTGTAAACAGCGAAATTTTATTTTTTGTTTTCTTTTTCCTAAGATGTTCCTTACTCCCAGTTACATAAAAATGTGTATTACAAGCAAACAAAAATTAACAG: 0.254 ratio
CTTACAGTACTGCAAGTTGCTCTAGGTGAGTCAGTGAGTGGTAAGTGAATGTGAAGGCCTAGGTTGTTACTGTGCTGTAGACTTTATAGACATTGTGTACTTAGACGACAATACATTTTTATTTTTATTATTATTTTTGAGACAGAATCTTGCTCTGTTGCCCAGACTAGAGTGCAGTGGTGCAATCTTGGCT: 0.269 ratio
TCTCTGCATTCCAAGCCGTTGCACCTGAACTCCCAACAATAACAGGGCGCTCTGAGACCTACCAGATGTACACAATGAATATCTTTATTTCCTTATTTATTTTTAGGTTTATGGGATTGTCCTGCTCCCTTTGAAGAGCAGGGATCATTATCCCCATTTTACAGATGGGGAAACAGAGACCTGGAGAAACATG: 0.251 ratio
GGTAAAATAGTGCTTGGTTAGAGAAAGAGATTGGCTAATAGTTTGGGGAAACCACTTTTAAGATAGGTATTATTTTAGTGCAACAAAATTGTTGTTTACTTAGGTTTATTCAAAACCTAAAGAGTTTAACTTAGCTTTTTACTGAACATAATTTAATTTCAGAAGTCATTTAGGATCTTGAGAACCTTCAGAT: 0.43 ratio
GCCAAGCTGTGCTCATGATCACATGGGAGGGAGGTGACAATGGAAAGCAGATAAATGAACTATTGCAGCCAATTGATGAGCACAGAGAGAGGCTGTTTACTGAATGTAGGCAGATAGGACCTTACACAATATCCCAGAGATCAACTTACCCCAGCACGGCTTGGACTTAGCAGAGAGGACCAATGGACCTGAA: 0.012 ratio
GGATTAAGTGGGCAGAAATTTTTTAGGAAGAAGTGTAGAAAAAATTCTGAGGCTTTGTCTTTCCAACTAAGATGACTAAAGGGATAATTTCTAAGTAAACAGGGATGCAAGGAACAATTAATTTATTTTTAACCAGAATAGTGATTTAAGTCTAACACGTTCTTGAATAACAATTTTCAAACTCCAGGAAAAC: 0.183 ratio
TTCTACTGATGTTGTGGCTTTGGTCATGTCCATCATCACTTTATGACCATTATAAGGTCAAATTCAATTGCTTCTGTTTTTGTTTGTTTGTTTGTTTACTTTGATCCCTATCTATATTTTTTGGGGGGATGCTTGTGAATTATCTTAGGAAAGGCAAATGCTCATGTATGTCATATTCTAGCCATAAATCAAG: 0.534 ratio
ACTTCCCCACTTCCATGTTGCAATTCCCTTCTCCAATAATGGGAAATTTGGTCTCATTATCCTCAATATGGCTATGTCTTTGCTCAATTTACTAGATTGCTTAATGTAACCAGCATCCCAACTGCACTGGCTGCCTCTGTCTGCTGCTTCCACACTTTCCTCCTTTTCACTTCCTCAGACTTGGGGCATGCTG: 0.0725 ratio

Excerpt of the above (sample 1):
AAUGGUGUCUUUUGAAAUGCACUUGUUUUUAAUUUUAAUGAAGCCUAAUGUAUUAGUUUCCUUAUACGAGUUAUGCUUUUAGUACUGUAUCUCUCUCUGCUUAACUAAAG: 0.491
GAGACACCAGAGGUCUGCUGCAGAGCCCCACCAAGAACCAAGAUGAAGAAAGCCCCUGAGAGAUGCACAUGGAGCCUGGAUCACUUCAUCCUCACACCUGUUCCCUCCAG: 0.902
AUUCCAUGAAAGAUGCAUUCAUUUAUUGAAGAUGACAAAAAAGGGAGUCAGAUAUAUUCUGGAAGCUAUUUUAAUUUUAGGCACACAAUCUCAUACAUUUUGAGACCCUU: 0.38
GAUGAUUUAAAAUUUUAAACCUGUUACAUUGAAAAACAUUGAAGUUCGUCUUGAAGAAAGCAUUAAGGUAUGCAUGGAGGUGAUUUAUUUUUAAACAUAACACCUAACCU: 19.3
CAGGCAGACUCAUCUCCGCAGAGCAUACCAGCCGUGGGGGACCGUUCGACUUGAUGAUGUGUGCACACUUCAGGUGGUGGGGACUUGAGCUUUAAAAAAACCUCCACAGC: 0.641
GAUGGUGUAGGAGAAGGCUUUCAAGAAUGACGGAAUAAGAGACCUGUUUUAAAAAGGAACUGCAGCAAUCUUUGAAAGACUUCCAAAGAAUGUUAGAGCACAGUACAUAA: 1.15
